Measured values collected from several papers.
Lines come from different studies, so protocols differ. “And” joins repeats or separate records; there may be more than shown. ± marks the error that the study gave.
KDM4A: Lysine-specific demethylase 4A (KDM4A, Homo sapiens, UniProt O75164)
UniProt O75164, sequence (whole entry, looked up): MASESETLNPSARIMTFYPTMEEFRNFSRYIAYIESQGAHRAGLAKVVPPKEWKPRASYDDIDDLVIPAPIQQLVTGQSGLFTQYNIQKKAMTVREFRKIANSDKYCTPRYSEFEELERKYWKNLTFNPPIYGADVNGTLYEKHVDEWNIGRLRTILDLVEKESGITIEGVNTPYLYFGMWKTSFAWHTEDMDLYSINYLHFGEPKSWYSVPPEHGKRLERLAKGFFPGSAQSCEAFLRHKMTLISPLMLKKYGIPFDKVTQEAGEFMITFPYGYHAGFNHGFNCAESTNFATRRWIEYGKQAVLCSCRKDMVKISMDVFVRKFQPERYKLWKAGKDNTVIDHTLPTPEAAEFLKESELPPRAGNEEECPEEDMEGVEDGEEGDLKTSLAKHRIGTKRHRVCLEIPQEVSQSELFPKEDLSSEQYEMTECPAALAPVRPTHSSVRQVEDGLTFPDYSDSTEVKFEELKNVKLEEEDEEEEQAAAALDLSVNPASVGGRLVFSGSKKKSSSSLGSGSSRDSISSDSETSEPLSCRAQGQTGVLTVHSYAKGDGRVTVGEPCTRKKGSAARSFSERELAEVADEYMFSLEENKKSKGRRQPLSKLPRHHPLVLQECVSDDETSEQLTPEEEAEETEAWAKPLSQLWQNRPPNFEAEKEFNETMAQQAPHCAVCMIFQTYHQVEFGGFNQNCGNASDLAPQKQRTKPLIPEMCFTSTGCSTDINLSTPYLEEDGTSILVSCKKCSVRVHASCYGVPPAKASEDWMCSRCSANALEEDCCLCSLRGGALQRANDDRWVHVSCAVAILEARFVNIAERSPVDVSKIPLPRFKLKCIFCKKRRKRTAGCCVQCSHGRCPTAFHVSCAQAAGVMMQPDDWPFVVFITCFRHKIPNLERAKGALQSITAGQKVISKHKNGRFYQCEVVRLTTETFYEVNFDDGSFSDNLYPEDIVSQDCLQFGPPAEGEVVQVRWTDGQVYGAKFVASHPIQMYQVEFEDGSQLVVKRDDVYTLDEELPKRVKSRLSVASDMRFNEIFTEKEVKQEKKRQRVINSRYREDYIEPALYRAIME
STK25: Serine/threonine-protein kinase 25 (STK25, Homo sapiens, UniProt O00506)
UniProt O00506, sequence (whole entry, looked up): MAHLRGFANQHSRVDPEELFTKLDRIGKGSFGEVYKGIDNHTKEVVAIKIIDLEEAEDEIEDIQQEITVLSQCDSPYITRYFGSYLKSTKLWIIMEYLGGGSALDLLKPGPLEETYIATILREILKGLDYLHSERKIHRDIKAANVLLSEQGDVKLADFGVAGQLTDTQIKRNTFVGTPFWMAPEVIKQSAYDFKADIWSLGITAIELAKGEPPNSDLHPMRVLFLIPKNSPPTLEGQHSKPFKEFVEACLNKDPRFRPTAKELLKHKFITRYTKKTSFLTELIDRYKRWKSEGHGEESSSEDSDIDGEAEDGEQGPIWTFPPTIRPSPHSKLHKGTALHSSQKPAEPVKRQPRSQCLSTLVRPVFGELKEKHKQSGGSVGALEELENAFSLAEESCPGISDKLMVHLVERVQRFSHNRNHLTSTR
UniProt P42336, sequence (whole entry, unmodified, looked up): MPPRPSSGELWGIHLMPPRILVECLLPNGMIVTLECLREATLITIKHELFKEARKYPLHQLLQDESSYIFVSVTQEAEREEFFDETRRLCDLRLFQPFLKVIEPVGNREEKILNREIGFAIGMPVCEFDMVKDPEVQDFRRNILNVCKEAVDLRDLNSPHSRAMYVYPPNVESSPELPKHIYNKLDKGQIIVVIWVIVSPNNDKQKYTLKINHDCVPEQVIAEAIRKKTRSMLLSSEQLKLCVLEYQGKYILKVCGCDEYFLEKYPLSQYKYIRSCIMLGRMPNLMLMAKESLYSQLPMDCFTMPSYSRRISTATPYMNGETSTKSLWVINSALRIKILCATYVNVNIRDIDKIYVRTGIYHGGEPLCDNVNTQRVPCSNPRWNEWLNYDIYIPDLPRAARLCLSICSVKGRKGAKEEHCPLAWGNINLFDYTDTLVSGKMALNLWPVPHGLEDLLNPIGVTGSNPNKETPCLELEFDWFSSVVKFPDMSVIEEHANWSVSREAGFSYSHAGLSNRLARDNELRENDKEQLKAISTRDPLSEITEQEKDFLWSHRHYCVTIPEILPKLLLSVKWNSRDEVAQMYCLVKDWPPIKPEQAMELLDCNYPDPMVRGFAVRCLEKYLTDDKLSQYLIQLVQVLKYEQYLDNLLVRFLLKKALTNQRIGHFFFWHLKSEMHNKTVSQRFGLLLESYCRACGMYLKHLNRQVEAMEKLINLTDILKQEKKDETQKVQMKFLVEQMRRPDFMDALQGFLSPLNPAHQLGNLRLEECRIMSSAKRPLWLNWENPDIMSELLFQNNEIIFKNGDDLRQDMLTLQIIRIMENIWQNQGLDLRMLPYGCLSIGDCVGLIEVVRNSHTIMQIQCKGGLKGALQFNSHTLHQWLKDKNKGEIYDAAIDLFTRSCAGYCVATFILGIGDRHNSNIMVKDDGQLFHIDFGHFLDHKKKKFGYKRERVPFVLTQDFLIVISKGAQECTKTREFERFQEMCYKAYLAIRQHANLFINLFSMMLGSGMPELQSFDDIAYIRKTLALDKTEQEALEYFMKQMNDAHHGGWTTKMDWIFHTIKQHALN
UniProt P97821, sequence (whole entry, looked up): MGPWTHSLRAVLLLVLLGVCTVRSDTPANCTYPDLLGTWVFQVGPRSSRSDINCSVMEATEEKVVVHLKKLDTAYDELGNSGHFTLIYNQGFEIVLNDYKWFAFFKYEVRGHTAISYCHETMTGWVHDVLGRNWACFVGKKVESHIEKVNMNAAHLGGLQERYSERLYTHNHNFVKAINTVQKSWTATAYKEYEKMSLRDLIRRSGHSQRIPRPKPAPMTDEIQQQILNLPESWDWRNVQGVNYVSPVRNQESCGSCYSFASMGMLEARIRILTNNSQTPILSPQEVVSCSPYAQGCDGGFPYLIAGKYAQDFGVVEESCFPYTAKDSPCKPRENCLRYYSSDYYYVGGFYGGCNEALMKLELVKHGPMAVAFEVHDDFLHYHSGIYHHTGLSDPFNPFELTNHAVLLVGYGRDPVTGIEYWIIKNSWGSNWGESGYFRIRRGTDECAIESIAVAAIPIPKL
UniProt Q15375, sequence (whole entry, looked up): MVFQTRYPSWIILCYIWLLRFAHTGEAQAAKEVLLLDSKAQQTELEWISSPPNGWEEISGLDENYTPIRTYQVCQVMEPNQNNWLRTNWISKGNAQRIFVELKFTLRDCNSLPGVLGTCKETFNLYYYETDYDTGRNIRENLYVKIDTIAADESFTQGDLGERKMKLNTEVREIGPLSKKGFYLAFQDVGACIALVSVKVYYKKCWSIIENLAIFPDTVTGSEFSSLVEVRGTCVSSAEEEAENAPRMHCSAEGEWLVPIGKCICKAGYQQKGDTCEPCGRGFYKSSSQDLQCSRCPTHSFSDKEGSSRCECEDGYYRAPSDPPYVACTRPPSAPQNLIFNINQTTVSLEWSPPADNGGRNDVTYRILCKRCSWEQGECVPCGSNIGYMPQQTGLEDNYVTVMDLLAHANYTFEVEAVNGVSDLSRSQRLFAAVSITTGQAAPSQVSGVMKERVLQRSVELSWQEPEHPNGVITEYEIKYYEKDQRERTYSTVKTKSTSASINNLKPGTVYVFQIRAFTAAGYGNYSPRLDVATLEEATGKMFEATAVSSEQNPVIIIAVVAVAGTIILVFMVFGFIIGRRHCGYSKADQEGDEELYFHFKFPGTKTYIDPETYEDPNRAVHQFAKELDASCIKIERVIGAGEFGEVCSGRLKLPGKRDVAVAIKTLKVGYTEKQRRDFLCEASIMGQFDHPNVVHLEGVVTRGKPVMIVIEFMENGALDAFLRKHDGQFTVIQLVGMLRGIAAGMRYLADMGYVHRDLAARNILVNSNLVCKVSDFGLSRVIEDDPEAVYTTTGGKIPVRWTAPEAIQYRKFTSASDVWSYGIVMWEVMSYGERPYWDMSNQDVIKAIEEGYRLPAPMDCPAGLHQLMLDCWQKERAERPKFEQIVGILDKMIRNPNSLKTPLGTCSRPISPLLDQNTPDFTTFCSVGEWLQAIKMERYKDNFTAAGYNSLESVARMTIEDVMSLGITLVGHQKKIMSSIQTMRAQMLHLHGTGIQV
UniProt Q86UE8, sequence (whole entry, looked up): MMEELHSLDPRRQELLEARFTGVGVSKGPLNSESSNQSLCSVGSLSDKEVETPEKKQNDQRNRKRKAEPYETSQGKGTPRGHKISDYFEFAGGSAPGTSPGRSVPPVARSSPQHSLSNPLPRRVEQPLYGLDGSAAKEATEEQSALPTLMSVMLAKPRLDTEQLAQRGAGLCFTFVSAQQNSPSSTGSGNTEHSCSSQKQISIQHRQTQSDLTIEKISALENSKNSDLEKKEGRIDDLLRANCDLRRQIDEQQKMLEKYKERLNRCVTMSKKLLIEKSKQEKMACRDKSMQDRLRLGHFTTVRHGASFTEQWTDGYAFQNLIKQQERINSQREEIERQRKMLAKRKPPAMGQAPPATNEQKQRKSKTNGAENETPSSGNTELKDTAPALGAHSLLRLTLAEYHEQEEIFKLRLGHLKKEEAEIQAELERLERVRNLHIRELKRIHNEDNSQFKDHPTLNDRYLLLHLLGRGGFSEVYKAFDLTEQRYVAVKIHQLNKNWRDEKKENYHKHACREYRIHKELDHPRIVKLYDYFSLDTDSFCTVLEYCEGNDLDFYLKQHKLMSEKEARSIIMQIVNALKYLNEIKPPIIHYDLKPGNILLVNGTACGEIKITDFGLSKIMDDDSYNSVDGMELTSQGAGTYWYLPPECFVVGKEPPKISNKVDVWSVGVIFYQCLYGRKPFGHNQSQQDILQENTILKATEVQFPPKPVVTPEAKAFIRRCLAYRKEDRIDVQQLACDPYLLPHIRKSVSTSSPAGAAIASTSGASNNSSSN

C/C(=N/Nc1ccc([N+](=O)[O-])cc1[N+](=O)[O-])c1ccccc1 gave a remaining activity of 100% (KDM4A; concentration not given).
The remaining activity of Cc1nc2cc(Cl)c(NS(=O)(=O)c3cccc(Cl)c3O)cc2s1 is reported as 110% (malate dehydrogenase; enzyme activity, inhibitor; 40 µM, pH 7.0, 1% DMSO, aggregation counter-screen).
c1cnc2ccc(Nc3nc(NC4CC4)c4nc[nH]c4n3)cc2c1 has a remaining activity of 78% (PDGFRB (Homo sapiens, UniProt P09619); kinase activity, inhibitor, SelectScreen kinase profiling; 1 µM; relative to: control).
CCCOc1ccc(OC)c(F)c1C(=O)c1ccc(C(=O)N[C@@H]2CNC[C@H]2NC(=O)c2ccc3[nH]ncc3c2)cc1 gave a remaining activity of 99% (BTK (Homo sapiens, UniProt Q06187, R28H); enzyme activity; 10 µM).
CN(C)CC#Cc1ccc2[nH]c3c(c2c1)-c1nc(N)ncc1CCC3 has a remaining activity of 72% (TSSK4 (Homo sapiens, UniProt Q6SA08); kinase activity, inhibitor, radiometric; 1 µM, with: ATP at Km).
CC1(C)CCc2sc(CNS(=O)(=O)c3occc3C(=O)O)cc2C1 has a remaining activity of 75% (malate dehydrogenase; enzyme activity, inhibitor; 200 µM, pH 7.0, 1% DMSO, aggregation counter-screen).
C=CC(=O)N1CCC[C@@H](n2nc(-c3ccc(Oc4ccccc4)cc3)c3c(N)ncnc32)C1 has a remaining activity of 3 ± 0.4% (TEC (Homo sapiens, UniProt P42680); kinase activity, inhibitor, HotSpot radiometric; 100 nM, with: ATP 10 µM).
The remaining activity of O=C(NC1CCC1)c1ccc2nc(-c3cccc(NS(=O)(=O)NCCN4CCCCC4)c3)cn2c1 is reported as 82% (LRRK2 (Homo sapiens, UniProt Q5S007); enzyme activity; 10 µM).
CNc1ncc2c(/C=C/C(=O)N3CCC(OC)CC3)nn(Cc3cccc(C(F)(F)F)c3)c2n1 has a remaining activity of 102% (TLK2 (Homo sapiens, UniProt Q86UE8); kinase activity, inhibitor; 1 µM; relative to: untreated control).
O=[N+]([O-])c1ccccc1CCNS(=O)(=O)c1cccc(Cl)c1O gave a remaining activity of 71% (malate dehydrogenase; enzyme activity, inhibitor; 200 µM, pH 7.0, 1% DMSO, aggregation counter-screen).
The remaining activity of COc1cc(F)ccc1-c1ncnc(Nc2cccc(C[S@](C)(=N)=O)c2)n1 is reported as 118% (HASPIN (Homo sapiens, UniProt Q8TF76); kinase activity; 10 µM, with: 10 µM ATP).
The remaining activity of Cc1cccc(C)c1C(=O)OCC(=O)[C@H](CCCCN)NC(=O)[C@H](CCCNC(=N)N)NC(=O)OCc1ccccc1 is reported as 72% (Ctsc (Mus musculus, UniProt P97821); inhibitor; 1 µM, room temperature, with: AMC substrate).
For O=C(O)c1ccc(Nc2ncc3c(n2)-c2ccc(Cl)cc2C(c2c(F)cccc2F)=NC3)cc1, the remaining activity was 88% (human IGF-1R(h); kinase activity; 1 µM).
C=CC[C@@H]1c2ccc(OC)c(OC)c2CN2CCc3cc4c(cc3[C@H]12)OCO4 has a remaining activity of 97.8% (P2X purinoceptor 7 (P2rx7, Mus musculus, UniProt Q9Z1M0, A312V); ATP-evoked current, inhibitor, whole-cell patch clamp; 0.1 µM, A312V variant).
Cc1ccc(NC(=O)c2ccc(C)c(C(F)(F)F)c2)cc1C#Cc1nn(C2CCC(O)CC2)c2ncnc(N)c12 (stereo not shown) gave a remaining activity of 85% (Phosphatidylinositol 4,5-bisphosphate 3-kinase catalytic subunit alpha isoform, with p85 alpha (PIK3CA, Homo sapiens, UniProt P42336, E542K); enzyme activity, inhibitor; 10 µM, p110a(E542K)/p85a)(h human, with: ATP 10 µM).
The remaining activity of Cn1ncc(C(=O)O)c1S(=O)(=O)NC1CCOc2ccccc21 (stereo not shown) is reported as 133% (malate dehydrogenase; enzyme activity, inhibitor; 200 µM, pH 7.0, 1% DMSO, aggregation counter-screen).
The remaining activity of COc1ccc(F)cc1C(=O)NCc1ccc(-c2nn([C@@H](C)C(F)(F)F)c(N)c2C(N)=O)cc1 is reported as 110% (STK25; kinase activity, inhibitor, HotSpot radiometric; 100 nM, with: ATP 10 µM).
The remaining activity of O=C(Cc1ccc(-c2nn[nH]n2)nc1)Nc1cc(F)cc(Cl)c1O is reported as 76% (malate dehydrogenase; enzyme activity, inhibitor; 200 µM, pH 7.0, 1% DMSO, aggregation counter-screen).
CC#CC(=O)N1CCC[C@H]1c1nc(-c2ccc(C(=O)Nc3ccccn3)cc2)c2c(N)nccn12 has a remaining activity of 99.35 ± 0.5% (STK25; kinase activity, inhibitor, HotSpot radiometric; 100 nM, with: ATP 10 µM).
With NC/C(=C\F)COc1cccc(Cn2c(=S)[nH]c(=O)c3[nH]cnc32)c1 the remaining activity was 78% and 71.3% and 94.1% (Lactoperoxidase (LPO, Bos taurus, UniProt P80025); H2O2 electrode; 2.5 µM; relative to: control).
O=C(O)c1occc1S(=O)(=O)NC1CCSc2c(F)cccc21 (stereo not shown) has a remaining activity of 123% (malate dehydrogenase; enzyme activity, inhibitor; 200 µM, pH 7.0, 1% DMSO, aggregation counter-screen).
For C=CC(=O)N1CCC[C@@H](n2nc(-c3ccc(Oc4ccccc4)cc3)c3c(N)ncnc32)C1, the remaining activity was 132% (PTK2 (Homo sapiens, UniProt Q05397); 10 µM).
The remaining activity of COc1cc(-c2cncc3c2CN(C)Cc2cc(N4CCNCC4)ccc2-3)cc(OC)c1OC is reported as 103% (STK25; kinase activity; 1 µM, human enzyme, with: ATP 10 µM; relative to: DMSO control).
The remaining activity of COc1cc(Nc2ncc3c(n2)-c2ccc(Cl)cc2C(c2c(F)cccc2OC)=NC3)ccc1C(=O)O is reported as 30% (FYN; kinase activity; 1 µM).
For COC1CC(OC(=O)c2ccc([N+](=O)[O-])cc2)C(OC(=O)c2ccc([N+](=O)[O-])cc2)C(C)O1 (stereo not shown), the remaining activity was 99% (KDM4A; concentration not given).
The remaining activity of Cc1cc(Nc2cc(N3CCN(C)CC3)nc(Sc3ccc(NC(=O)C4CC4)cc3)n2)[nH]n1 is reported as 86% (EPHA7 (Homo sapiens, UniProt Q15375); kinase activity, KinaseProfiler; 0.03 µM, species human; relative to: control).
With CN(C(=O)n1cnc(-c2ccc[n+]([O-])c2)c1)C1CCCCC1 the remaining activity was 79% (Faah (Rattus norvegicus, UniProt P97612); rat, liver; 0.1 mg/kg, 6 days; relative to: control).
O=S(=O)(NCc1ccccc1OC(F)(F)F)c1cc(Cl)cc(Cl)c1O gave a remaining activity of 88% (malate dehydrogenase; enzyme activity, inhibitor; 200 µM, pH 7.0, 1% DMSO, aggregation counter-screen).
Cc1cc(NC(=O)c2cccc(NC(=O)/C=C/CN(C)C)c2)ccc1Nc1nccc(-c2cccnc2)n1 has a remaining activity of 1 (MAPK8 (Homo sapiens, UniProt P45983); enzyme activity, inhibitor; 0.006774 µM, 6 h, unit not given, with: GSH 10 mM pre-incubation; relative to: vehicle).
The remaining activity of C=CC(=O)N1CCC([C@@H]2CCNc3c(C(N)=O)c(-c4ccc(Oc5ccccc5)cc4)nn32)CC1 is reported as 89.9 ± 1.8% (LYN (Homo sapiens, UniProt P07948); kinase activity, inhibitor, HotSpot radiometric; 100 nM, with: ATP 10 µM).
N#Cc1ccccc1CSCCNC(=O)C1(C(=O)O)CC=CCC1 (stereo not shown) has a remaining activity of 82% (malate dehydrogenase; enzyme activity, inhibitor; 200 µM, pH 7.0, 1% DMSO, aggregation counter-screen).

For quick reference, copied from above:
For COC1CC(OC(=O)c2ccc([N+](=O)[O-])cc2)C(OC(=O)c2ccc([N+](=O)[O-])cc2)C(C)O1 (stereo not shown), the remaining activity was 99% (KDM4A; concentration not given).
O=S(=O)(NCc1ccccc1OC(F)(F)F)c1cc(Cl)cc(Cl)c1O gave a remaining activity of 88% (malate dehydrogenase; enzyme activity, inhibitor; 200 µM, pH 7.0, 1% DMSO, aggregation counter-screen).
The remaining activity of COc1ccc(F)cc1C(=O)NCc1ccc(-c2nn([C@@H](C)C(F)(F)F)c(N)c2C(N)=O)cc1 is reported as 110% (STK25; kinase activity, inhibitor, HotSpot radiometric; 100 nM, with: ATP 10 µM).
The remaining activity of Cc1cc(Nc2cc(N3CCN(C)CC3)nc(Sc3ccc(NC(=O)C4CC4)cc3)n2)[nH]n1 is reported as 86% (EPHA7 (Homo sapiens, UniProt Q15375); kinase activity, KinaseProfiler; 0.03 µM, species human; relative to: control).
With NC/C(=C\F)COc1cccc(Cn2c(=S)[nH]c(=O)c3[nH]cnc32)c1 the remaining activity was 78% and 71.3% and 94.1% (Lactoperoxidase (LPO, Bos taurus, UniProt P80025); H2O2 electrode; 2.5 µM; relative to: control).
